{"data": "Published values from different studies", "note": "Parts stem from different laboratories: compare values within a part only. Several values in a cell are separate wells, animals, samples, runs or records."}
{"data": "Sample 1", "target": "Histone acetyltransferase KAT6A, winged helix 2, GST fusion (KAT6A, Homo sapiens, UniProt Q92794, residues 85-181)", "method": "protein binding microarray", "form": "double-stranded DNA, one strand shown", "medium": "in vitro", "concentration": "not given", "notes": "8-mer, flanks averaged, mean of 2 arrays, mostly near background", "relative to": "not given", "direction": "higher = stronger binding", "Construct (chain)": "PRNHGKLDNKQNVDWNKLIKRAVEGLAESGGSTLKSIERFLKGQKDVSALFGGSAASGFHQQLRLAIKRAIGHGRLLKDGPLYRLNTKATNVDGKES"}
{"Sequence": "TATTGTCA", "E-score": -0.0149}
{"Sequence": "GGTCCGCA", "E-score": 0.16}
{"Sequence": "ACCTAGAC", "E-score": -0.153}
{"Sequence": "CGAAGTTA", "E-score": -0.0952}
{"Sequence": "AAACCGGG", "E-score": 0.0213}
{"Sequence": "CTATTTGA", "E-score": 0.017}
{"Sequence": "AGGCGTGA", "E-score": 0.0037}
{"Sequence": "GATTCGGC", "E-score": 0.129}
{"data": "Sample 2", "target": "Replicase polyprotein 1ab, nsp13 helicase (rep, Severe acute respiratory syndrome coronavirus 2, UniProt P0DTD1)", "action": "inhibitor", "concentration": "20 µM"}
{"SMILES": "CC(C)CCC[C@@H](C)[C@H]1CC[C@H]2[C@@H]3CC=C4C[C@@H](O)CC[C@]4(C)[C@H]3CC[C@]12C", "inhibition [%]": 2.34}
{"SMILES": "Cc1nc2ccccc2c(-c2ccc3c4c(ccnc24)CCO3)c1[C@H](OC(C)(C)C)C(=O)O", "inhibition [%]": -0.96}
{"SMILES": "CCOc1cc(/C=C2/C(=O)N(c3ccccc3)N=C2C)cc(Cl)c1OCC(=O)OC", "inhibition [%]": 1.97}
{"SMILES": "Cc1ncc(CN2CC=C(c3ccccc3)CC2)c(N)n1", "inhibition [%]": 5.92}
{"SMILES": "CC1(O)CCC(C(C)(C)O)CC1 (centres unmarked)", "inhibition [%]": 8.85}
{"SMILES": "CC(=O)C1=C(O)[C@@H]2[C@H]3c4c[nH]c5cccc(c45)C[C@H]3C(C)(C)N2C1=O", "inhibition [%]": 2.47}
{"SMILES": "O=C1C=Cc2cc(Br)ccc2C1=O", "inhibition [%]": 100}
{"SMILES": "CCN(CC)C(=O)c1ccc(O)c(OC)c1", "inhibition [%]": -0.39}
{"SMILES": "CN1CCN(c2c(F)cc3c(=O)c(C(=O)O)cn4c3c2OCN4C)CC1", "inhibition [%]": 0.33}
{"SMILES": "OC[C@H]1NCC[C@@H](O)[C@@H]1O", "inhibition [%]": 1.06}
{"SMILES": "O=C(Nc1cc(-c2ccccc2)nn1-c1ccccc1)c1ccc([N+](=O)[O-])cc1", "inhibition [%]": 0.87}
{"SMILES": "c1ccc(CC2=NCCN2)cc1", "inhibition [%]": 3.67}
{"SMILES": "C[C@]12CC[C@H]3C(=CCc4cc(O)ccc43)[C@@H]1CCC2=O", "inhibition [%]": -3.03}
{"SMILES": "Cc1ccc(/C=C2/C(=O)[C@]3(C)CC[C@H]2C3(C)C)cc1", "inhibition [%]": 5.66}
{"SMILES": "C[C@@H]1C(=O)O[C@H]2C[C@@]34[C@H]5C[C@@H](C(C)(C)C)[C@]36[C@@H](OC(=O)[C@@H]6O)O[C@@]4(C(=O)O5)[C@]21O", "inhibition [%]": 8.12}
{"SMILES": "NCCc1c[nH]c2ccc(O)cc12", "inhibition [%]": 1.01}
{"SMILES": "CC(C)NCC(O)c1ccc(O)c(O)c1 (centres unmarked)", "inhibition [%]": 0.01}
{"SMILES": "Nc1ncnc2nc(-c3ccc(N4CCOCC4)nc3)cc(-c3cccc(Br)c3)c12", "inhibition [%]": 4.19}
{"SMILES": "Cc1ccccc1NC(=N)Nc1ccccc1C", "inhibition [%]": 5.91}
{"SMILES": "CC(C)(C=O)Cc1cc(C(C)(C)C)c(O)c(C(C)(C)C)c1", "inhibition [%]": 2.48}
{"SMILES": "CSCC[C@H](NC(=O)[C@H](CC(C)C)NC(=O)CNC(=O)[C@H](Cc1ccccc1)NC(=O)[C@H](Cc1ccccc1)NC(=O)[C@H](CCC(N)=O)NC(=O)[C@H](CCC(N)=O)NC(=O)[C@@H]1CCCN1C(=O)[C@H](CCCCN)NC(=O)[C@@H]1CCCN1C(=O)[C@@H](N)CCCN=C(N)N)C(N)=O", "inhibition [%]": 7.28}
{"SMILES": "COc1cc2ncnc(Sc3nnc(C)s3)c2cc1OC", "inhibition [%]": -1.11}
{"SMILES": "Oc1nc(O)c2cn[nH]c2n1", "inhibition [%]": 2.81}
{"SMILES": "O=S(=O)(c1ccccc1)N(CC(F)(F)F)c1ccc(C(O)(C(F)(F)F)C(F)(F)F)cc1", "inhibition [%]": -0.96}
{"SMILES": "CO[C@H]1C[C@H](O[C@@H]2/C(C)=C/C[C@@H]3C[C@@H](C[C@]4(CC[C@H](C)[C@@H](C5CCCCC5)O4)O3)OC(=O)[C@@H]3C=C(C)/C(=N/O)[C@H]4OC/C(=C\\C=C\\[C@@H]2C)[C@]43O)O[C@@H](C)[C@@H]1O", "inhibition [%]": -4.7}
{"data": "Sample 3", "cell line": "HEK-293T", "read-out": "pseudovirus infection", "method": "FDA-approved drug library screen", "organism": "VSV pseudotyped with SARS-CoV-2 spike", "concentration": "10 µM", "time": "16 h", "relative to": "vehicle-treated"}
{"SMILES": "COc1ccc2[nH]c([S+]([O-])Cc3ncc(C)c(OC)c3C)nc2c1 (centres unmarked)", "GFP-positive cells [%]": 83.7}
{"SMILES": "Cc1ccc(-c2cc(C(F)(F)F)nn2-c2ccc(S(N)(=O)=O)cc2)cc1", "GFP-positive cells [%]": 92.5}
{"SMILES": "CNS(=O)(=O)Cc1ccc2[nH]cc(CCN(C)C)c2c1", "GFP-positive cells [%]": 105}
{"data": "Sample 4", "target": "Sal-like protein 4, full length isoform A (SALL4, Homo sapiens, UniProt Q9UJQ4, residues 1-1053)", "method": "universal PBM", "form": "double-stranded DNA, one strand shown", "medium": "in vitro", "concentration": "600 nM", "notes": "8-mer, flanks averaged, mean of replicates", "direction": "higher = stronger binding", "chain of UniProt Q9UJQ4 (whole entry, looked up)": "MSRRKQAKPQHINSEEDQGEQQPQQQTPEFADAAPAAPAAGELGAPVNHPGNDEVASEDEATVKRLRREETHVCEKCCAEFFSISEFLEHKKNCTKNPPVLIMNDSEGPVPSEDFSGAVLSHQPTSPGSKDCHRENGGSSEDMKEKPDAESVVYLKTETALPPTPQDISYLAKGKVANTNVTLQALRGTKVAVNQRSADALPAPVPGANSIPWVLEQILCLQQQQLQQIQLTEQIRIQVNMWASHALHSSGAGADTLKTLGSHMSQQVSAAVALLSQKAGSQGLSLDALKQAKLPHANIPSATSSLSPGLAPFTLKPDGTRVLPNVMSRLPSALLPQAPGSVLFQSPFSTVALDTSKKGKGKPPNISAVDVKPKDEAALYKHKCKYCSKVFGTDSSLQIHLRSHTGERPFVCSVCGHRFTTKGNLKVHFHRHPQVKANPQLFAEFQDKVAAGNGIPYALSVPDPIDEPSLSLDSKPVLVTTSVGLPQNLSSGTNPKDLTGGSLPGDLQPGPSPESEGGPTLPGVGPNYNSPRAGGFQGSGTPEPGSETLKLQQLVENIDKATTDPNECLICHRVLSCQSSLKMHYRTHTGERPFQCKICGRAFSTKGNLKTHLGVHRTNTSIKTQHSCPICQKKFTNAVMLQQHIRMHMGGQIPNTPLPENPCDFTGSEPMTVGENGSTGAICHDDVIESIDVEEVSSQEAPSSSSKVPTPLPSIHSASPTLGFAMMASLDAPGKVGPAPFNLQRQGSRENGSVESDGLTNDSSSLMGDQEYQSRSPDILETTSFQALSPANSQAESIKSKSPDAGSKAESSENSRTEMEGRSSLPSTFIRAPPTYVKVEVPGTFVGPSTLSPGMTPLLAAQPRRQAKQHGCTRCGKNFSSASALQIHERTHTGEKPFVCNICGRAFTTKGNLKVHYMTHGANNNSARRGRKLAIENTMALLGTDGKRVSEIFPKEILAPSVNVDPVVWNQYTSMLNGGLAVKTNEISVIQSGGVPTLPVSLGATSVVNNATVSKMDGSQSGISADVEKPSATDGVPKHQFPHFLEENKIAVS"}
{"Sequence": "AAAGTTCC", "E-score": -0.128}
{"Sequence": "TAAATGCA", "E-score": 0.282}
{"Sequence": "AAGACGAC", "E-score": 0.0201}
{"Sequence": "ACTGAAGA", "E-score": 0.0978}
{"Sequence": "ACGTAGAT", "E-score": 0.143}
{"Sequence": "AGCGATAA", "E-score": 0.115}
{"Sequence": "GACGGCAA", "E-score": -0.139}
{"Sequence": "ACCGTGCG", "E-score": -0.125}
{"data": "Sample 5", "organism": "SARS-CoV-2", "read-out": "cytopathic effect", "cells": "Vero E6", "concentration": "10 µM"}
{"Structure (SMILES)": "Cc1ccc(-n2sc(=O)n(Cc3ccc(F)cc3)c2=O)cc1", "inhibition": "-4.1% and 1.4%"}
{"Structure (SMILES)": "O=C1C2CC=CCC2C(=O)N1SC(Cl)(Cl)Cl (centres unmarked)", "inhibition": "-25.1%"}
{"Structure (SMILES)": "OC[C@H]1O[C@H]([S-])[C@H](O)[C@@H](O)[C@@H]1O.[Au+]", "inhibition": "5.6%"}
{"Structure (SMILES)": "COc1ccc(C(=O)n2nc(-c3ccccc3)nc2N)cc1OC", "inhibition": "5.6%"}
{"data": "Sample 6", "target": "Interferon regulatory factor 7, full length, phosphomimetic (IRF7, Homo sapiens, UniProt Q92985, residues 1-503, S101K/S471D/S472D/S475D/S476D/S477D/S483D/S484D/S487D)", "method": "protein-binding microarray", "form": "double-stranded DNA, one strand shown", "medium": "in vitro", "concentration": "250 nM", "notes": "60-bp whole probe", "together with": "salmon DNA 0.4 mg/ml", "relative to": "random background probes", "direction": "higher = stronger binding", "constant ends, left off below": "GCCTAGCAC … GTCTTGATTCGCTTGACGCTGCTG", "Target sequence (chain)": "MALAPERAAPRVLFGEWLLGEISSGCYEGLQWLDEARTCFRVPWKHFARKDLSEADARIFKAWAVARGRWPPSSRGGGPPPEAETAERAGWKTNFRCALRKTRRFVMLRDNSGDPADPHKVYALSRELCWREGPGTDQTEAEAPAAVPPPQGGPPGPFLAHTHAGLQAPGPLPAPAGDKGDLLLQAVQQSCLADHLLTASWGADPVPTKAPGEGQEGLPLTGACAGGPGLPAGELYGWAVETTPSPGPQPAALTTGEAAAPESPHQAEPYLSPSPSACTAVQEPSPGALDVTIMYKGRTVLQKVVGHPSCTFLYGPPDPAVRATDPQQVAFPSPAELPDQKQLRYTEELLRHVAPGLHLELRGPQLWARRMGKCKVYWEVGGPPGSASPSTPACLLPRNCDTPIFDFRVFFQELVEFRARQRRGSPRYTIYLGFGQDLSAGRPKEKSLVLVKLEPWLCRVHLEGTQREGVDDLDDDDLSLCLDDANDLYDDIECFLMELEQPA"}
{"Sequence": "GACGGTTTCAGTTTCGAGACGTGCTAG", "log fluorescence": "8.4 z-score"}
{"Sequence": "TTCACTTTAAATTAGACTTAGTGCTAG", "log fluorescence": "0.644 z-score"}
{"Sequence": "TCACGAGTCCCTATCTCACTGTGCTAG", "log fluorescence": "-0.096 z-score"}
{"Sequence": "TTAAGACTGGACACTGGGTTAGTGCTA", "log fluorescence": "-0.744 z-score"}
{"Sequence": "AAGAAGCTTCCTCTCTGCCAGTGCTAG", "log fluorescence": "-0.0674 z-score"}
{"Sequence": "AACCACATAGGAAGAACAACGTGCTAG", "log fluorescence": "-0.125 z-score"}
{"Sequence": "TCAGGTCTCCTTTTCCTTTAGTGCTAG", "log fluorescence": "1.95 z-score"}
{"Sequence": "GACGGTCTCGATCTCGGGACGTGCTAG", "log fluorescence": "1.11 z-score"}
{"note": "Repeated from above (sample 2):"}
{"SMILES": "Cc1ncc(CN2CC=C(c3ccccc3)CC2)c(N)n1", "inhibition [%]": 5.92}
{"SMILES": "CC1(O)CCC(C(C)(C)O)CC1 (centres unmarked)", "inhibition [%]": 8.85}
{"SMILES": "CC(=O)C1=C(O)[C@@H]2[C@H]3c4c[nH]c5cccc(c45)C[C@H]3C(C)(C)N2C1=O", "inhibition [%]": 2.47}
{"SMILES": "O=C1C=Cc2cc(Br)ccc2C1=O", "inhibition [%]": 100}
{"SMILES": "CCN(CC)C(=O)c1ccc(O)c(OC)c1", "inhibition [%]": -0.39}
{"SMILES": "CN1CCN(c2c(F)cc3c(=O)c(C(=O)O)cn4c3c2OCN4C)CC1", "inhibition [%]": 0.33}
